Published values of several laboratories.
Numbered parts are unrelated; each lists some results of a single study.
Sequence of UniProt Q05655 (whole entry, looked up): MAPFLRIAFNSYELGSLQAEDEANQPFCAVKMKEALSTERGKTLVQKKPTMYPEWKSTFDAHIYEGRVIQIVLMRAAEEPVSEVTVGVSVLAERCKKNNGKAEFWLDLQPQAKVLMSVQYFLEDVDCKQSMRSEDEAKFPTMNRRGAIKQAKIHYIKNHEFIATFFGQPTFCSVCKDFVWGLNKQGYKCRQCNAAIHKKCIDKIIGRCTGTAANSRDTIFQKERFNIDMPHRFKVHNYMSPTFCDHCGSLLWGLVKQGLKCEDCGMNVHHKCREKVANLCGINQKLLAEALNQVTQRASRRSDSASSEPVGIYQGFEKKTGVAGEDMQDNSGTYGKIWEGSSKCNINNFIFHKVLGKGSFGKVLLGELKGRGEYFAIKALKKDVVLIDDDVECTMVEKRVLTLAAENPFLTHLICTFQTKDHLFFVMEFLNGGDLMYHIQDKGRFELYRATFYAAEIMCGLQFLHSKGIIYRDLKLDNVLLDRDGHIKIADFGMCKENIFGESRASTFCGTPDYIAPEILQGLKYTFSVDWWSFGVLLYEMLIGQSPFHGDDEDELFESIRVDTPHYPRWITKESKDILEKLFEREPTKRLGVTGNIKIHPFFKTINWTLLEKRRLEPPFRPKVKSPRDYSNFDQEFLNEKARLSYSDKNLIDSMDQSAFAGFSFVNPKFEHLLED
Sequence of UniProt Q06187 (whole entry, looked up): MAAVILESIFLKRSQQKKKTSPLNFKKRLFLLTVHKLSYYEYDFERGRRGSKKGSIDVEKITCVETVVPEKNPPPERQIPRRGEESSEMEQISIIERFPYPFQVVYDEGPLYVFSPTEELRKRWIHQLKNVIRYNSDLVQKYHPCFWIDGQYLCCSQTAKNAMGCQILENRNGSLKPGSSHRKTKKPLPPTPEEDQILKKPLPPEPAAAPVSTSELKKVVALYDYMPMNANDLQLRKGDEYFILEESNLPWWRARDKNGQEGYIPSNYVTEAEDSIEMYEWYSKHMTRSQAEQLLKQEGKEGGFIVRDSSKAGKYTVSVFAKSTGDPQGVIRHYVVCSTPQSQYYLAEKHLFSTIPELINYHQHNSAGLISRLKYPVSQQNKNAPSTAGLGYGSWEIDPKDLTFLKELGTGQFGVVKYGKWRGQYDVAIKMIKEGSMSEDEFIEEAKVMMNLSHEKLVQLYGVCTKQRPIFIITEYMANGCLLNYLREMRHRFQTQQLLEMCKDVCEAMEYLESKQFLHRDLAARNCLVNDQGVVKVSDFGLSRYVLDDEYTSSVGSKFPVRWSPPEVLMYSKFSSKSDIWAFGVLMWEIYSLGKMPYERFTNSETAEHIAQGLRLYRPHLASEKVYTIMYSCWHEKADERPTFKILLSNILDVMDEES
Sequence of UniProt Q9Y243 (whole entry, looked up): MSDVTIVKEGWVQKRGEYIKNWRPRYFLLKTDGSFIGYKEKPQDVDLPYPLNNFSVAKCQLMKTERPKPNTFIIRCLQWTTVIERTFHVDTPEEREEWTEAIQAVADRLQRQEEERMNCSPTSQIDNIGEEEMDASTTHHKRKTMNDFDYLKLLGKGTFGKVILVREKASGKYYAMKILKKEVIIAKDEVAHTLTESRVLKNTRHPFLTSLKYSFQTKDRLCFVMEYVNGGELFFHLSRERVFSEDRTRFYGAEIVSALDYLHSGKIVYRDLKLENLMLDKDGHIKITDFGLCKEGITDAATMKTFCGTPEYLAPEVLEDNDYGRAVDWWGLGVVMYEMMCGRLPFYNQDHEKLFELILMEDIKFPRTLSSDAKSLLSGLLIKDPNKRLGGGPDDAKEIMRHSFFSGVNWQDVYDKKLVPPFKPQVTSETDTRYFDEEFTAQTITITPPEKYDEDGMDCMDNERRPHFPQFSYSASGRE
Sequence of UniProt P50750 (whole entry, looked up): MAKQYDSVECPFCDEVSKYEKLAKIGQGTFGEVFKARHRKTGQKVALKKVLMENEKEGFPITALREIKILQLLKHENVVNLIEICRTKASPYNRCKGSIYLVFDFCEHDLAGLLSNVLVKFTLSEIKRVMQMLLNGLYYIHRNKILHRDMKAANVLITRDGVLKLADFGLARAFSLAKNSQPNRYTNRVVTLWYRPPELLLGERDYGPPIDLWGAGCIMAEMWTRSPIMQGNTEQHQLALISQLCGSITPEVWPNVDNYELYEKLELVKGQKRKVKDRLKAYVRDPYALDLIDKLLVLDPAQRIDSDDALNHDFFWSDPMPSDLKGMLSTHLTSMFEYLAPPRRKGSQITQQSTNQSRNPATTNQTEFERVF
Sequence of UniProt P54756 (whole entry, looked up): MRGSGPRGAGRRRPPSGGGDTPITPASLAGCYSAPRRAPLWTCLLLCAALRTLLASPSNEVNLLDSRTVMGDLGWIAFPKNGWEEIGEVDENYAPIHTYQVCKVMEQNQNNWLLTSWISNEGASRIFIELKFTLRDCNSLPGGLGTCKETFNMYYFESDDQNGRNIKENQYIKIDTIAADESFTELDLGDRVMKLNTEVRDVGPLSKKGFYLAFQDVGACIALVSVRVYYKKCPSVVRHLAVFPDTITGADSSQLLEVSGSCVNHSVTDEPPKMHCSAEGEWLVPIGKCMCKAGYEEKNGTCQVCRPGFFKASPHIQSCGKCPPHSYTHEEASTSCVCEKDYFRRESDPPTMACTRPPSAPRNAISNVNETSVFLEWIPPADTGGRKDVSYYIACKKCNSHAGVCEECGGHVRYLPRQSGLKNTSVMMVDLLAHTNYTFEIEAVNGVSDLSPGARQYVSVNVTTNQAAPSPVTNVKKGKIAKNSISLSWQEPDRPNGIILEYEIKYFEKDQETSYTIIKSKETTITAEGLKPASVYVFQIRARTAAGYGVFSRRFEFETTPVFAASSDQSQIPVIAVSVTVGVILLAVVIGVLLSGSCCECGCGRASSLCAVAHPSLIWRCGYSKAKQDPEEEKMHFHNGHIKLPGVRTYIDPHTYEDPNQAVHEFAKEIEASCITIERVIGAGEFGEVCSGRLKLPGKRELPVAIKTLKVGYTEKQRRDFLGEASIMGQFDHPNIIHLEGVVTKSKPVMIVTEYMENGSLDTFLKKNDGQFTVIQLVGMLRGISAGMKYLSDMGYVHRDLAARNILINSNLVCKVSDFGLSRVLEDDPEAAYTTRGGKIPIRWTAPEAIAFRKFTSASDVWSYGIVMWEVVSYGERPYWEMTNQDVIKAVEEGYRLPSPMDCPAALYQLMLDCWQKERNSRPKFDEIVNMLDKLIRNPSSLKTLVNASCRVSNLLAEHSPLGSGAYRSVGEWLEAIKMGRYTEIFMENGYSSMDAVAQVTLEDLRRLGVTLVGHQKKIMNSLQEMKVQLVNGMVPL
Sequence of UniProt O15264 (whole entry, looked up): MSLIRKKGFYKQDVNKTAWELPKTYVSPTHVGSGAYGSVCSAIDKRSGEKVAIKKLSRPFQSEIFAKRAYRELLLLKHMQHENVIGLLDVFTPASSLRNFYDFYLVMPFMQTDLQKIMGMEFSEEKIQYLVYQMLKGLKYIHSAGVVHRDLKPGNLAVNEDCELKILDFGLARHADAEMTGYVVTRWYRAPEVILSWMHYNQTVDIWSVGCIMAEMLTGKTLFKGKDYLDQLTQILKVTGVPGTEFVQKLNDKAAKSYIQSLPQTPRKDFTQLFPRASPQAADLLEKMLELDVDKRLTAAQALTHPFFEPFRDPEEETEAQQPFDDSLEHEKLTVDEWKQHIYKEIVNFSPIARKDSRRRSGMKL
Sequence of UniProt P68400 (whole entry, looked up): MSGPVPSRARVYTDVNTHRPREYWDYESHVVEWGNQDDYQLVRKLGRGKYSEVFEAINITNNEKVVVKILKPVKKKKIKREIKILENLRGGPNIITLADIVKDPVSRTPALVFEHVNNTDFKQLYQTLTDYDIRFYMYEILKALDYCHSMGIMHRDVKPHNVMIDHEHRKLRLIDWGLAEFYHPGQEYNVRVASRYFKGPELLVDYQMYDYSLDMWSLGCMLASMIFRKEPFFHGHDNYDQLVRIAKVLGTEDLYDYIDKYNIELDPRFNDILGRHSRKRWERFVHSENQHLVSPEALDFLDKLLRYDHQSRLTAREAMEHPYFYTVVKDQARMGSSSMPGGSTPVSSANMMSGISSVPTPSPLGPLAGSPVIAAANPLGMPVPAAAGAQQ

Set 1
Organism: Sarcocystis neurona
Read-out: parasite growth
Tested at: 10 µM
Time: 96 h
Notes: first screen
SMILES	inhibition
CC(=O)OCC(=O)[C@@]12OC3(CCCC3)O[C@@H]1C[C@H]1[C@@H]3CCC4=CC(=O)C=C[C@]4(C)[C@@]3(F)[C@@H](O)C[C@@]12C	11.6%
CN1CCC(=C2c3ccccc3CC(=O)c3sccc32)CC1	15.5%
CO[C@H]1/C=C/O[C@@]2(C)Oc3c(C)c(O)c4c(O)c(c(/C=N/N5CCN(C6CCCC6)CC5)c(O)c4c3C2=O)NC(=O)/C(C)=C\C=C\[C@H](C)[C@H](O)[C@@H](C)[C@@H](O)[C@@H](C)[C@H](OC(C)=O)[C@@H]1C	21%
CC12CC3CC(C)(C1)CC(N)(C3)C2	-17.3%
Cc1onc(-c2ccccc2)c1-c1ccc(S(N)(=O)=O)cc1	-9.5%
O=C(O)CCNC(=O)c1ccc(/N=N/c2ccc(O)c(C(=O)O)c2)cc1	-12.4%
NC(=O)c1cccnc1	26.7%
O=C(O)c1cc(-c2ccc(F)cc2F)ccc1O	-6.3%
Cc1ccc(NC(=O)c2ccc(CN3CCN(C)CC3)cc2)cc1Nc1nccc(-c2cccnc2)n1	15%
CC(C(O)c1ccc(O)cc1)N1CCC(Cc2ccccc2)CC1 (stereo not drawn)	7.7%
CC1=NS(=O)(=O)c2cc(Cl)ccc2N1	-1.3%

Set 2
Target: Histamine H3 receptor (HRH3, Homo sapiens, UniProt Q9Y5N1)
Sequence of UniProt Q9Y5N1 (whole entry, looked up): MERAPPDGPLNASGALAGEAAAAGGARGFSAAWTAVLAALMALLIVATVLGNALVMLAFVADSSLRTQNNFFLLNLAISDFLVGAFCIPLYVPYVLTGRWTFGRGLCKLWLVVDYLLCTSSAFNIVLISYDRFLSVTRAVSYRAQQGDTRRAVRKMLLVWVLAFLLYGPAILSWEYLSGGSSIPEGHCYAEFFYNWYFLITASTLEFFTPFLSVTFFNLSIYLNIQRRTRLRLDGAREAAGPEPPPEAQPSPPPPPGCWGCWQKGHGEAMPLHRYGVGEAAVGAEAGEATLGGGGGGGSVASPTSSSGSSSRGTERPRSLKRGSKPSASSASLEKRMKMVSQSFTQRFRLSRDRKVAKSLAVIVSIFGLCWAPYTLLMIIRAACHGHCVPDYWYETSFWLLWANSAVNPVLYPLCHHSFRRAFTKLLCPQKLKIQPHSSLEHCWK
Read-out: ligand displacement
Tested at: 10 µM
Structure (SMILES)	inhibition [%]
O=C(NS(=O)(=O)c1ccc(NCC2CCOCC2)c([N+](=O)[O-])c1)c1ccc(N2CCN(Cc3ccc(C(F)(F)F)cc3-c3ccc(Cl)cc3)CC2)cc1Oc1cnc2[nH]ccc2c1	-1.15
CCc1ccccc1C(=O)Nc1n[nH]c2c(C)c(F)c(C3C(C#N)=C(C)N(C)C(C)=C3C#N)cc12	-10.8
O=S(=O)(NC1CCC(c2cc(F)ccc2F)(S(=O)(=O)c2ccc(Cl)cc2)CC1)C(F)(F)F (stereo not drawn)	14.2
COCCOc1nc(-c2ccc(Cl)nc2)nc2c1CN(C(=O)c1ncn3ccccc13)CC2	5.45
Cc1c(NC(=O)c2cc(C(N)=O)nc3cc(F)ccc23)c(C(F)(F)F)nn1Cc1ccc(C#N)cc1	-15.3
C[C@H](c1ccc(F)cc1)N(Cc1cccc(C(=O)O)c1)C(=O)c1cnc2ccccc2c1	16.6
CC[C@H](CC(=O)O)n1c(=O)c2ncccc2n(Cc2cn(C)c3cc(C)cc(C)c23)c1=O	3.32
Cc1noc([C@H]2C[C@@H](c3ccc(C(F)(F)F)cc3)CN(C(=O)N3CCS(=O)(=O)C3)C2)n1	5.78
O=C1NC(c2ccccn2)Sc2ccccc21 (stereo not drawn)	8.1
CC(=O)N1CCC(c2ccc(C(=O)NC3=NCCN3)cc2C(F)(F)F)CC1	-18
Cc1ccccc1Oc1cc(-n2c(=O)cc(C(F)(F)F)[nH]c2=O)c2ccccc2c1Cl	-21.5
CC1=C(C#N)C(c2ccc3[nH]nc(C)c3c2)C(C#N)=C(C)N1	-3.35
CN1CCN(c2cnc3c(C4CCN(C(=O)c5ccc(OC(F)(F)F)cc5N)CC4)ncnc3c2)CC1	36.9

Set 3
Target: Beta-1 adrenergic receptor (ADRB1, Homo sapiens, UniProt P08588)
Sequence of UniProt P08588 (whole entry, looked up): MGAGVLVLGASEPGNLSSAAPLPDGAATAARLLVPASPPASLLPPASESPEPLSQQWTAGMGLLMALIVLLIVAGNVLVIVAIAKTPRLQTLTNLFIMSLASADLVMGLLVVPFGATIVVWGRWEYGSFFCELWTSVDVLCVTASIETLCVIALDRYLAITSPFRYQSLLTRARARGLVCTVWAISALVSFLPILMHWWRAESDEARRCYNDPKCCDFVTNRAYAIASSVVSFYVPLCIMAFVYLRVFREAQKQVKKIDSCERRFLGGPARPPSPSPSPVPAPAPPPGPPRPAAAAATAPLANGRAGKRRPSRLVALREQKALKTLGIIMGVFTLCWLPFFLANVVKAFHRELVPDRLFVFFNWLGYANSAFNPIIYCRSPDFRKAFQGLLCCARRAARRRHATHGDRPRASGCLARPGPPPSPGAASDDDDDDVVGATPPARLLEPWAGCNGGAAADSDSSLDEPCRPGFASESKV
Mode: agonist
Compound	EC50
OC1(c2cccc(C(F)(F)F)c2)CCN(Cc2nc(-c3cccs3)no2)CC1	≥ 100 µM
O=c1c2nc(-c3cccc(C(F)(F)F)c3)ccc2ncn1Cc1ccccn1	≥ 100 µM
Cc1cccc(OCC(O)CNC(C)C)c1 (stereo not drawn)	0.0148 µM
C[C@@H](c1ccc2nccn2c1)n1nnc2ncc(-c3cnn(C)c3)nc21	≥ 100 µM
CN(C)c1ccc(/C=C/C2=CC(/C=C/c3ccc(N(C)C)cc3)=[O+][B-](F)(F)O2)cc1	≥ 100 µM
Cc1cccc(-c2n[nH]cc2-c2ccnc3ccccc23)n1	≥ 100 µM
CN1CCC(Cn2ccc3c(N4CCOCC4)nc(-c4cccc5[nH]ccc45)cc32)CC1	≥ 100 µM
C[S+](=O)([O-])c1cccc(Nc2n[nH]c(C(O)c3ccccc3)n2)c1 (stereo not drawn)	≥ 100 µM
Cc1cc2c(-c3ccccc3C)nc(-c3c(C)noc3C)cc2[nH]1	3.55 µM
OC(CN1CCN(c2cccc(Cl)c2)CC1)C(c1ccccc1)c1ccccc1 (stereo not drawn)	≥ 100 µM
C[n+]1ccc(-c2c3nc(c(-c4cc[n+](C)cc4)c4ccc([nH]4)c(-c4cc[n+](C)cc4)c4nc(c(-c5cc[n+](C)cc5)c5ccc2[nH]5)C=C4)C=C3)cc1	≥ 100 µM
OC(CNc1ncnc2c1cnn2-c1ccccc1)C1CC1 (stereo not drawn)	≥ 100 µM
c1ccc2c(c1)OCC(CNCc1cnc(N3CCOCC3)nc1)O2 (stereo not drawn)	22.4 µM
Cc1noc2c(NC(C)C)cc(-c3ccccc3)nc12	≥ 100 µM
Cc1noc2c(-c3cnn(Cc4ccccc4)c3)cc(-c3cccnc3)nc12	≥ 100 µM
Cc1ccc(-c2cc(C(=O)N3CCC(c4nc(C5CCOCC5)no4)C3)c3ccccc3n2)cc1C (stereo not drawn)	≥ 100 µM
CN(Cc1ccccc1)Cc1cc(CC2(NCc3ccc(N(C)C)cc3)COC2)no1	≥ 100 µM

Set 4
SMILES: Cc1ccc(NC2=CC(=O)c3sc(C)nc3C2=O)cc1
Read-out: enzyme activity
Mode: inhibitor
Tested at: 0.5 µM
Relative to: control
target	remaining activity
KIT (Homo sapiens, UniProt P10721)	74.7%
CHEK1 (Homo sapiens, UniProt O14757)	91.1%
PLK2 (Homo sapiens, UniProt Q9NYY3)	95.1%
MAP3K10 (Homo sapiens, UniProt Q02779)	94.6%
IRAK4 (Homo sapiens, UniProt Q9NWZ3)	124%
EPHA5 (Homo sapiens, UniProt P54756)	98.2%
PRKG1 (Homo sapiens, UniProt Q13976)	104%
CSNK1A1 (Homo sapiens, UniProt P48729)	106%
Cyclin-dependent kinase 9, with cyclin T1 (CDK9, Homo sapiens, UniProt P50750)	97.6%
PRKCD (Homo sapiens, UniProt Q05655)	104%
LYN (Homo sapiens, UniProt P07948)	106%
MAPK12 (Homo sapiens, UniProt P53778)	99.3%
NEK4 (Homo sapiens, UniProt P51957)	95.3%
PRKCI (Homo sapiens, UniProt P41743)	96.9%
MAP4K2 (Homo sapiens, UniProt Q12851)	104%
CSNK2A1 (Homo sapiens, UniProt P68400)	98.2%
BTK (Homo sapiens, UniProt Q06187)	99.2%
AKT3 (Homo sapiens, UniProt Q9Y243)	92.8%
MAP2K6 (Homo sapiens, UniProt P52564)	90.4%
MKNK2 (Homo sapiens, UniProt Q9HBH9)	89%
MAPK13 (Homo sapiens, UniProt O15264)	105%
LRRK2 (Homo sapiens, UniProt Q5S007)	102%

For quick reference, copied from above (set 3):
Compound	EC50
Cc1cc2c(-c3ccccc3C)nc(-c3c(C)noc3C)cc2[nH]1	3.55 µM
Cc1ccc(-c2cc(C(=O)N3CCC(c4nc(C5CCOCC5)no4)C3)c3ccccc3n2)cc1C (stereo not drawn)	≥ 100 µM
OC(CNc1ncnc2c1cnn2-c1ccccc1)C1CC1 (stereo not drawn)	≥ 100 µM
CN(Cc1ccccc1)Cc1cc(CC2(NCc3ccc(N(C)C)cc3)COC2)no1	≥ 100 µM
C[C@@H](c1ccc2nccn2c1)n1nnc2ncc(-c3cnn(C)c3)nc21	≥ 100 µM
CN1CCC(Cn2ccc3c(N4CCOCC4)nc(-c4cccc5[nH]ccc45)cc32)CC1	≥ 100 µM
